Measured values of several laboratories.
Each line is one published result; not all experiments were run side by side.
Observed: metabolic stability
Medium: liver microsomes

O=C(CCN1C(=O)CSc2ccccc21)Nc1nnc(-c2ccccn2)[nH]1 — half-life (mouse): 50.4 min
Brc1ccc(Nc2nc(NN=Cc3c[nH]c4ccccc34)nc(N3CCOCC3)n2)cc1 — half-life (mouse; 0.1 µM, pH 7.4): 11.9 min
N#Cc1nc(N2CCOCC2)nc(N(Cc2ccc(F)cc2)CC2CCCNC2)n1 (stereo not shown) — half-life (mouse): > 60 min
CN(C)C(=O)c1ccnc(N2Cc3cn(Cc4ccc(F)cc4F)nc3C2)n1 — half-life (mouse): 141 min
CCC(CC)CNC(=N)NC(=N)NCCCCCCNC(=N)NC(=N)NCC(CC)CC — half-life (mouse; 2 µM): 64.6 min
O=C(Nc1ccc(OCCN2CCCC2)cc1)c1cc2ccc(Cl)cc2s1 — half-life (female mouse): > 40 min
COc1cc(-c2nc3ccc(C(=O)NCCCN4CCN(C(=O)c5ccccc5)CC4)cc3n2C2CCC2)cc(OC)c1OC — half-life (mouse): 2.8 min
C[N+]1(CC(=O)OC2CCCCCCCCCCC2)CCCCC1 — half-life (mouse): 4.9 min
CNC(=O)c1cc(C)ccc1NC(=O)c1ccc(-c2cc(O)ccc2C)c(C)c1 — half-life (mouse; 2 µM): > 25 min
COc1cc(-c2nc3ccc(C(=O)NCCCN4CCN(C5CCCCC5)CC4)cc3n2C2CCC2)cc(OC)c1OC — half-life (mouse): 10 min
CNC(=O)C1CCN(c2ccccc2NC(=O)c2ccc(-c3cc(O)ccc3C)c(C)c2)CC1 — half-life (mouse; 2 µM): < 10 min
COc1cc(-c2nc3ccc(C(=O)NCCCN4CCN(c5ccccc5)C(=O)C4)cc3n2C2CCC2)cc(OC)c1OC — half-life (mouse): 6.1 min
CC(C)CCN(Cc1ccc(F)cc1)c1nc(C#N)nc(N2CCOCC2)n1 — half-life (mouse): 7 min
O=c1c(-c2cnn(-c3ccc(Cl)cc3)c2)c(C(F)(F)F)oc2c(O)c(O)ccc12 — half-life (mouse): > 300 min
Cc1nc(N[C@@H](C)c2ccc(-c3nc(C4CC4)no3)cc2)c2cc(C)oc2n1 — half-life (mouse): 11 min
CC(C)(F)CCN(Cc1ccc(F)cc1)c1nc(C#N)nc(N2CCOCC2)n1 — half-life (mouse): 3.5 min
O=C(Nc1ccc(-c2noc(C3CC3)n2)c(Cl)c1)c1cccs1 — half-life (mouse): 16.3 min
Cc1[nH]c2ccccc2c1CC(=O)N[C@@H](Cc1ccccc1)C(=O)N(C)c1ccccc1 — half-life (mouse; 1 µM, pH 7.4): < 1 min
CNC(=O)c1cc(C)ccc1NC(=O)c1ccc(-c2c(C)ccc3[nH]ncc23)c(C)c1 — half-life (mouse; 2 µM): > 25 min

For quick reference, copied from above:
O=C(CCN1C(=O)CSc2ccccc21)Nc1nnc(-c2ccccn2)[nH]1 — half-life (mouse): 50.4 min
Brc1ccc(Nc2nc(NN=Cc3c[nH]c4ccccc34)nc(N3CCOCC3)n2)cc1 — half-life (mouse; 0.1 µM, pH 7.4): 11.9 min
N#Cc1nc(N2CCOCC2)nc(N(Cc2ccc(F)cc2)CC2CCCNC2)n1 (stereo not shown) — half-life (mouse): > 60 min
